Experimental data from different studies.
Each numbered part is a random draw from the data of one study; scales do not carry over between parts. Positions count from the first letter of the parent shown.

Study 1 — method: universal PBM; form: double-stranded DNA, one strand shown; matrix: in vitro; tested at: not given; direction: higher = stronger binding
Target: Sal-like protein 4, full length isoform B (SALL4, Homo sapiens, UniProt Q9UJQ4-2, residues 1-616)
Notes: 8-mer, flanks averaged, mean of replicates
With `CGGAGACG` the E-score was -0.117.
`ACCGCTTC` gave an E-score of -0.163.
`ACTTCCCA` has an E-score of 0.014.
The E-score of `CGTCCTCA` is reported as -0.051.
`CCAGCAGG` has an E-score of -0.352.
For `ATTAAGCA`, the E-score was 0.196.
For `GATACTGA`, the E-score was 0.0364.
`ATTAAGCG` has an E-score of 0.135.

Study 2 — method: protein-binding microarray; form: double-stranded DNA, one strand shown; matrix: in vitro; tested at: not given; direction: higher = stronger binding
Target: Runt-related transcription factor 1 (RUNX1, Homo sapiens, UniProt Q01196, residues 1-453, full length assumed)
Chain of UniProt Q01196 (whole entry, looked up): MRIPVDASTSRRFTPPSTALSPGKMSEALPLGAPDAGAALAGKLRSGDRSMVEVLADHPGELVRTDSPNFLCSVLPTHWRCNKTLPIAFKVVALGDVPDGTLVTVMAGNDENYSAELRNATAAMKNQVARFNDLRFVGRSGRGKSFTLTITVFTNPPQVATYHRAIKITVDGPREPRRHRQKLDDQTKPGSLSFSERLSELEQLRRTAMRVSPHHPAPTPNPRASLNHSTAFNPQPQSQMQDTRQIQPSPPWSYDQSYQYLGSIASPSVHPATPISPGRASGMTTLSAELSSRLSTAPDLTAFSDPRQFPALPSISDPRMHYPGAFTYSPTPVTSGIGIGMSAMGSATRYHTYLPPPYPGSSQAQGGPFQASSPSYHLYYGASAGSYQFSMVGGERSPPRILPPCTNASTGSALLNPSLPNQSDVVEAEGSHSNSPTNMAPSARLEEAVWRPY
Notes: k-mer, scored over probes, only values ≥0.25
The E-score of `ACCGCAC` is reported as 0.456.
`AGTTGTG` has an E-score of 0.255.
With `CATGCGG` the E-score was 0.288.
The E-score of `CACAACC` is reported as 0.271.
`AACCACC` has an E-score of 0.345.
`CACACAA` has an E-score of 0.29.
For `AACCACG`, the E-score was 0.332.
With `TAAACCA` the E-score was 0.302.

Study 3 — method: protein binding microarray; form: double-stranded DNA, one strand shown; matrix: in vitro; tested at: not given; relative to: not given; direction: higher = stronger binding
Target: Histone acetyltransferase KAT6A, both winged helices, GST fusion (KAT6A, Homo sapiens, UniProt Q92794, residues 1-181)
Notes: 8-mer, flanks averaged, mean of 2 arrays, mostly near background
Construct (chain): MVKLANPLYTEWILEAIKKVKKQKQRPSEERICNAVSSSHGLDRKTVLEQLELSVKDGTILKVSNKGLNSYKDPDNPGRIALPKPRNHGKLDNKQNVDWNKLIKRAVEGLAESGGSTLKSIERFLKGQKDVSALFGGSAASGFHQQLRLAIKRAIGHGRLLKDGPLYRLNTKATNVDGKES
`CATTTTCC` gave an E-score of -0.0121.
With `AATCGAAA` the E-score was 0.0101.
`CGCTGAAC` has an E-score of 0.166.
`GTAGCCGA` has an E-score of 0.0663.
`AAAGTATT` gave an E-score of -0.165.
The E-score of `TACGTACA` is reported as 0.0388.
With `ACAGGGGA` the E-score was -0.157.
For `CGTGCACC`, the E-score was -0.0597.

Single results of other studies
Parent: viral docking peptide; TSVRRALFTGGSD; partner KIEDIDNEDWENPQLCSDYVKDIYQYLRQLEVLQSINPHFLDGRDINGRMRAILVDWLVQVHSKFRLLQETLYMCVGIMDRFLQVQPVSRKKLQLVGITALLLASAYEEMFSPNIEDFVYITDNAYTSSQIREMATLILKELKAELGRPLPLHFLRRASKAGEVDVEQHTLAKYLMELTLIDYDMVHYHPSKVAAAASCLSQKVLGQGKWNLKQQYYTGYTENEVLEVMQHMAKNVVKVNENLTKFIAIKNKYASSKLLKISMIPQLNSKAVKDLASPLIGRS
For `TSVRRALFNGGSD [T9N]`, “normalised enrichment score” read 0.625 (CCNB2, cyclin fold, Cln2 fusion (human); yeast growth competition, sequencing; yeast; strong parent motif; relative to: not given, higher = stronger binding).

A few entries again (study 1):
`ACCGCTTC` gave an E-score of -0.163.
For `GATACTGA`, the E-score was 0.0364.
